Results of several laboratories.
Protocols differ between the studies behind these lines.
Organism: Staphylococcus aureus

| SMILES | assay | test system | conditions | MIC |
| --- | --- | --- | --- | --- |
| Cn1c(Cl)c(Cl)c(-n2c(C(=O)c3ccccc3O)cc(Cl)c2Cl)c1C(=O)c1ccccc1O | microbial growth, broth dilution | NCTC8325 | 20 h | > 64 µg/mL |
| Oc1c(Br)cc(Br)c2nc3c(C(F)(F)F)cc(C(F)(F)F)cc3nc12 | broth microdilution | MRSA 44 | – | 0.05 µM |
| CCCCN(CCCC)CC(O)COc1c2ccoc2c(OC)c2oc(CC)cc(=O)c12 (stereo not shown) | microbial growth, broth dilution | ATCC29 | 19 h | 256 µg/mL |
| CNC(CC(C)C)C(=O)NC1C(=O)NC(CC(N)=O)C(=O)NC2C(=O)NC3C(=O)NC(C(=O)NC(C(=O)O)c4cc(O)cc(O)c4-c4cc3ccc4O)C(O)c3ccc(c(Cl)c3)Oc3cc2cc(c3OC2OC(CO)C(O)C(O)C2OC2CC(C)(NC(=O)CCCCCCCC[N+](C)(C)C)C(O)C(C)O2)Oc2ccc(cc2Cl)C1O (stereo not shown) | agar dilution | MRSA clinical isolate MRSA3 | – | 32 µg/mL |
| CCc1nc(N)nc(N)c1C#CC(C)c1cc(-c2cc(C)nc(C)c2)ccc1OC (stereo not shown) | microbial growth, broth dilution | ATCC43300 | 18 h | 0.156 µg/mL |
| CNC(CC(C)C)C(=O)NC1C(=O)NC(CC(N)=O)C(=O)NC2C(=O)NC3C(=O)NC(C(=O)NC(C(=O)O)c4cc(O)cc(O)c4-c4cc3ccc4O)C(O)c3ccc(c(Cl)c3)Oc3cc2cc(c3OC2OC(CO)C(O)C(O)C2OC2CC(C)(NC(=O)CCCCCCCC[n+]3ccccc3)C(O)C(C)O2)Oc2ccc(cc2Cl)C1O (stereo not shown) | agar dilution | MRSA clinical isolate MRSA4 | – | 64 µg/mL |
| CCCCCCCCCc1nc2ccc(F)cc2c(=O)n1N | broth microdilution | RN6390B | – | > 100 µM |
| CNC(CC(C)C)C(=O)NC1C(=O)NC(CC(N)=O)C(=O)NC2C(=O)NC3C(=O)NC(C(=O)NC(C(=O)O)c4cc(O)cc(O)c4-c4cc3ccc4O)C(O)c3ccc(c(Cl)c3)Oc3cc2cc(c3OC2OC(CO)C(O)C(O)C2OC2CC(C)(NC(=O)CCCCCC[N+](C)(C)C)C(O)C(C)O2)Oc2ccc(cc2Cl)C1O (stereo not shown) | agar dilution | MRSA clinical isolate MRSA3 | – | 64 µg/mL |
| CC[P+](CC)(CC)[Au-][S]c1ccc(OC)cc1 | broth microdilution | JE2 (USA300) | – | 0.02 µM |
| CN(C)c1cc(CNCCC(C)(C)C)c(O)c2c1C[C@H]1C[C@H]3[C@H](N(C)C)C(O)=C(C(N)=O)C(=O)[C@@]3(O)C(O)=C1C2=O | – | MRSA 5, Tet M, 50% human serum | – | 16 µg/mL |
| CNC(CC(C)C)C(=O)NC1C(=O)NC(CC(N)=O)C(=O)NC2C(=O)NC3C(=O)NC(C(=O)NC(C(=O)NCCCNC(=N)N)c4cc(O)cc(O)c4-c4cc3ccc4O)C(O)c3ccc(c(Cl)c3)Oc3cc2cc(c3OC2OC(CO)C(O)C(O)C2OC2CC(C)(N)C(O)C(C)O2)Oc2ccc(cc2Cl)C1O (stereo not shown) | – | Sensitive ATCC 25923 | – | 0.25 µg/mL |
| CC(C)CNCc1cc(N(C)C)c2c(c1O)C(=O)C1=C(O)[C@]3(O)C(=O)C(C(N)=O)=C(O)[C@@H](N(C)C)[C@@H]3C[C@@H]1C2 | – | RN4250, Tet K efflux | – | 1 µg/mL |
| CCOC1(C)CC2C=CC3C(C)C=CC=CC(C)OC(=O)C(C)C(=O)C(Cl)(Cl)C(=O)C3C2C(C)C1O (stereo not shown) | microbial growth, broth dilution | NEWMAN | – | 2 to 4 µg/mL |
| N#Cc1ccc2cccc(O)c2n1 | microbial growth, agar dilution | ATCC29213 | – | > 1500 µM |
| CN(C)c1cc(CNCc2ccco2)c(O)c2c1C[C@H]1C[C@H]3[C@H](N(C)C)C(O)=C(C(N)=O)C(=O)[C@@]3(O)C(O)=C1C2=O | microbial growth, broth dilution | – | – | 1 µg/mL |
| CCOc1ccc(NC(=O)CSc2nc3ccccc3c(=O)n2-c2ccc(S(N)(=O)=O)cc2)cc1 | – | methicillin-resistant | 24 h, 37 °C | 5 µg/mL |

| SMILES | assay | test system | conditions | MIC |
| --- | --- | --- | --- | --- |
| CC1CCN(Cc2cc(N(C)C)c3c(c2O)C(=O)C2=C(O)[C@]4(O)C(=O)C(C(N)=O)=C(O)[C@@H](N(C)C)[C@@H]4C[C@@H]2C3)CC1 | – | MRSA 5, Tet M ribosome protection | – | 0.25 µg/mL |
| O=C1OCC(NCCc2ccc(Cl)cc2)N1/N=C/c1ccc([N+](=O)[O-])o1 (stereo not shown) | microbial growth, broth dilution | ATCC29213 | 18 h | 3.12 µg/mL |
| COc1cc(Cc2cnc(N)nc2N)cc(/C=C/C(=O)N2N=Cc3ccccc3C2c2ccccc2)c1OC (stereo not shown) | microbial growth, broth dilution | ATCC29213 | – | 0.125 µg/mL |
| COCCNCc1cc(N(C)C)c2c(c1O)C(=O)C1=C(O)[C@]3(O)C(=O)C(C(N)=O)=C(O)[C@@H](N(C)C)[C@@H]3C[C@@H]1C2 | – | RN4250, Tet K efflux | – | 2 µg/mL |
| CCN(CC)CCn1nc(C23CC4CC(CC(C4)C2)C3)n(C)c1=S | two-fold dilution | IFO 3060 | 24 h, 36 °C | 8 µg/mL |
| COc1cccc(OC)c1C(=O)N[C@@H]1C(=O)N2[C@@H]1SC(C)(C)[C@@H]2C(=O)O | microbial growth, broth dilution | NEWMAN | – | 2 µg/mL |
| CC1OCC2OC(OC3C(N)CC(N)C(O)C3OC3OC(CO)C(OC4OC(CN)C(O)C(O)C4N)C3O)C(N)C(O)C2O1 (stereo not shown) | broth microdilution | MRSA isolate AG 042 | – | 32 µg/mL |
| C=C(NC(=O)C(=C)NC(=O)c1csc(C2=NC3c4csc(n4)C4NC(=O)c5csc(n5)C(C(C)(O)C(C)O)NC(=O)C5CSC(=N5)C(=CC)NC(=O)C(C(C)O)NC(=O)c5csc(n5)C3(CC2)NC(=O)C(C)NC(=O)C(=C)NC(=O)C(Cc2ccccc2)NC(=O)C(C(C)CC)NC2C=Cc3c(C(C)O)cc(nc3C2O)C(=O)OC4C)n1)C(N)=O (stereo not shown) | broth microdilution | ATCC 10537 MRSA | 18 h, 37 °C | 0.022 µg/mL |
| CCCCCCCCCCN1C(=O)/C(=N\NC(=N)N)c2cc(C)ccc21 | microbial growth, broth dilution | – | 18 h | 3 µg/mL |
| CCCCCC(C)CCc1nc2ccccc2c(=O)n1N (stereo not shown) | broth microdilution | RN6390B | – | > 100 µM |
| CN(C)c1cc(CNCC2CCCCC2)c(O)c2c1C[C@H]1C[C@H]3[C@H](N(C)C)C(O)=C(C(N)=O)C(=O)[C@@]3(O)C(O)=C1C2=O | – | MRSA 5, Tet M, 50% mouse serum | – | 16 µg/mL |
| C[C@H](NC(=O)[C@H](Cc1c[nH]c2ccccc12)NC(=O)[C@@H](N)CCCNC(=N)N)C(=O)N[C@@H](Cc1c[nH]c2ccccc12)C(=O)N[C@@H](CCCNC(=N)N)C(=O)N[C@@H](Cc1c[nH]c2ccccc12)C(=O)N[C@@H](CCC(N)=O)C(=O)N[C@@H](Cc1c[nH]c2ccccc12)C(=O)N[C@@H](CCCNC(=N)N)C(N)=O | broth microdilution | ATCC 25923 | 24 h, 37 °C | 140 µM |
| CCCCO[C@H]1[C@H](O)[C@@H](N)[C@@H](O[C@H]2[C@H](O[C@@H]3O[C@H](CO)[C@@H](O[C@H]4O[C@@H](CN)[C@@H](O)[C@H](O)[C@H]4N)[C@H]3O)[C@@H](O)[C@H](N)C[C@@H]2N)O[C@@H]1CO | broth microdilution | MRSA isolate AG 038 | – | 8 to 16 µg/mL |
| Cc1ccc(NC(=O)C2C(=O)C(c3ccccc3)c3ccc4c(c32)C(=O)c2ccccc2C4=O)cc1 (stereo not shown) | microbial growth | – | – | 64 µg/mL |
| CC1CCN(CCCN2/C(=C/c3cc(/C=C/c4c[nH]c5ccccc45)[n+](C)c4ccccc34)Sc3ccccc32)CC1 | microbial growth, broth dilution | MRSA | – | 32 µg/mL |
